Measured values from different studies.
Compare with care: the assays were run in different laboratories.
DCN1-like protein 1: DCN1-like protein 1 (Homo sapiens, UniProt Q96GG9)
Chain of UniProt Q96GG9 (whole entry, looked up): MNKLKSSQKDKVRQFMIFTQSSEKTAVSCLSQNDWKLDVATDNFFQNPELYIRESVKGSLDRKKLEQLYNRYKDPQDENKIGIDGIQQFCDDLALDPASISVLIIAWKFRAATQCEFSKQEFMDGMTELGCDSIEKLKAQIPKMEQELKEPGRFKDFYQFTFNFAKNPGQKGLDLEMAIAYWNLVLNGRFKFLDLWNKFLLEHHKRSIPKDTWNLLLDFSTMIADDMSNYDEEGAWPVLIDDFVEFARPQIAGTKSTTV
GLP1R: Glucagon-like peptide 1 receptor (GLP1R, Homo sapiens, UniProt P43220)
Chain of UniProt Q04912 (whole entry, looked up): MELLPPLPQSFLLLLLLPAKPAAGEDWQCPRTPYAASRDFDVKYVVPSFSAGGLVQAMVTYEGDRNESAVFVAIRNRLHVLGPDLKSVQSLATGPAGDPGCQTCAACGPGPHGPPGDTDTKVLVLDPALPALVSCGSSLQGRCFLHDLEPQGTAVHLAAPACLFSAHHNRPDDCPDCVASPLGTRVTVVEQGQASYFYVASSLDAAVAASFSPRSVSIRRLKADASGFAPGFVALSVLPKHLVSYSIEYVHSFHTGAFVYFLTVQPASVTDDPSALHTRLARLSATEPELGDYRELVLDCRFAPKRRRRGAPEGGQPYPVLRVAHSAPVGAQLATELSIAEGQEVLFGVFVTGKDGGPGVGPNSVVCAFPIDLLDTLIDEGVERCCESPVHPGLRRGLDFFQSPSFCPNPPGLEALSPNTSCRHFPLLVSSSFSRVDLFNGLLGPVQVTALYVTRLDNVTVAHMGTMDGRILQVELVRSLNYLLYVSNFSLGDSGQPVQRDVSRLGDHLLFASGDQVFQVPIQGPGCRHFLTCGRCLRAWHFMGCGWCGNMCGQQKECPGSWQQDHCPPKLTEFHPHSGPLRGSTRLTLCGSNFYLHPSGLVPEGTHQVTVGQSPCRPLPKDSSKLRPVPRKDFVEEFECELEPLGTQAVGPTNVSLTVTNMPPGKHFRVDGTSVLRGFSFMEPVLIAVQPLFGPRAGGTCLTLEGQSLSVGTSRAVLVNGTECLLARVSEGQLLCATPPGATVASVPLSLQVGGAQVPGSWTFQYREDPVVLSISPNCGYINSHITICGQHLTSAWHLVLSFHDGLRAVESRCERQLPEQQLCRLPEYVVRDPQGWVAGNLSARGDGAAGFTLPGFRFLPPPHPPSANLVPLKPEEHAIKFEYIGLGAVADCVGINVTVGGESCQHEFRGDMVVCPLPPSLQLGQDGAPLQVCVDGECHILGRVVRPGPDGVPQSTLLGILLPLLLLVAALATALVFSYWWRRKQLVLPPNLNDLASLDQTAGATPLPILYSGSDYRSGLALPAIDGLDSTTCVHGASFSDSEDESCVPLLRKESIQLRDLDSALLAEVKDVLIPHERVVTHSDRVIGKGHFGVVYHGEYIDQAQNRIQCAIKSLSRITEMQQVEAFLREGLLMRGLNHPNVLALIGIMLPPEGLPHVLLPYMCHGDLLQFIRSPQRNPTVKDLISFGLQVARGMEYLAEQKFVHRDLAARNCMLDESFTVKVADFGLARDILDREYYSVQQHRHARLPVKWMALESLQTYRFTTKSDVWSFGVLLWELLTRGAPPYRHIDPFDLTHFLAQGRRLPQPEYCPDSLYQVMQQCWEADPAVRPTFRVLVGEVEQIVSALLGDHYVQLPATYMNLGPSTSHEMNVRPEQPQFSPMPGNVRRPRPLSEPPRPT
Chain of UniProt Q14790 (whole entry, looked up): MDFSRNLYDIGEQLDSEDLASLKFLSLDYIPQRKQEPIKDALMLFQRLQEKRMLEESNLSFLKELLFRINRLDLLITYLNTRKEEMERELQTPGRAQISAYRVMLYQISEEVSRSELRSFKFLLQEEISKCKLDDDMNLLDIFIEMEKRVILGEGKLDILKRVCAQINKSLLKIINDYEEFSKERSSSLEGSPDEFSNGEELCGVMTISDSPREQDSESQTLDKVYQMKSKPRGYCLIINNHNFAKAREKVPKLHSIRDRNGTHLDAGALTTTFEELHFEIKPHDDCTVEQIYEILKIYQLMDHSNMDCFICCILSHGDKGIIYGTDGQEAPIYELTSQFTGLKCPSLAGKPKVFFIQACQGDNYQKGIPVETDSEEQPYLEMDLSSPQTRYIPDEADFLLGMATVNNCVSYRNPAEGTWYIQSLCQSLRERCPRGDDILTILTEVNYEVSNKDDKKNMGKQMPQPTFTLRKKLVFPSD

COc1cc(Nc2ncc(F)c(Nc3ccc4c(n3)NC(=O)C(C)(C)O4)n2)cc(OC)c1OC has an IC50 of over 10000 nM (Caspase-8 (CASP8, Homo sapiens, UniProt Q14790)).
Cc1csc([C@H]2c3c(C)nn(-c4ccccc4)c3NC(=O)[C@H]2NC(=O)c2cccc(C(F)(F)F)c2)c1 gave an IC50 of over 15000 nM (DCN1-like protein 1).
COc1ccc(N=Nc2ccc3[nH]cc(CCN(C)C)c3c2)cc1 gave a Ki of 24.8 nM (5-hydroxytryptamine receptor 1A (HTR1A, Homo sapiens, UniProt P08908); binding, radioligand binding; ambient light).
The IC50 of Cc1nn(-c2ccccc2)c2c1[C@H](c1cscn1)[C@H](NC(=O)c1cccc(C(F)(F)F)c1)C(=O)N2 is reported as over 15000 nM (DCN1-like protein 1).
For CO[C@H]1C[C@@H]2CC[C@@H](C)[C@@](O)(O2)C(=O)C(=O)N2CCCC[C@H]2C(=O)O[C@H]([C@H](C)C[C@@H]2CC[C@@H](OC(=O)NCCOCCOCCOCCOCCOCCOCCOCCOCCC(=O)N3CCc4cc(Cn5nc(-c6ccc7oc(N)nc7c6)c6c(N)ncnc65)ccc4C3)[C@H](OC)C2)C[C@@H](O)[C@H](C)/C=C(\C)[C@@H](O)[C@@H](OC)C(=O)[C@H](C)C[C@H](C)/C=C/C=C/C=C/1C, the constipation incidence was 18.8% (patients with advanced solid tumours; intravenous, 8 mg weekly, any grade).
CC[C@H](C)[C@H](NC(=O)[C@H](Cc1ccccc1)NC(=O)[C@H](CCC(=O)O)NC(=O)[C@H](CCCNC(=N)N)NC(=O)[C@H](C)NC(=O)[C@H](C)NC(=O)[C@H](CCC(N)=O)NC(=O)[C@H](CCC(=O)O)NC(=O)[C@H](CCC(=O)O)NC(=O)[C@H](CC(C)C)NC(=O)[C@H](Cc1ccc(O)cc1)NC(=O)[C@H](CO)NC(=O)[C@H](CO)NC(=O)[C@@H](NC(=O)[C@H](CC(=O)O)NC(=O)[C@H](CO)NC(=O)[C@@H](NC(=O)[C@H](Cc1ccccc1)NC(=O)[C@@H](NC(=O)CNC(=O)[C@H](CCC(=O)O)NC(=O)[C@H](C)NC(=O)CCc1c[nH]cn1)[C@@H](C)O)[C@@H](C)O)C(C)C)C(=O)N[C@@H](C)C(=O)N[C@@H](Cc1c[nH]c2ccccc12)C(=O)N[C@@H](CC(C)C)C(=O)N[C@H](C(=O)N[C@@H](CCCNC(=N)N)C(=O)NCC(=O)N[C@@H](CCCNC(=N)N)C(=O)N[C@@H](CCCCNC(=O)COCCOCCNC(=O)COCCOCCNC(=O)CC[C@H](NC(=O)CCCCCCCCCCCCCCCCC(=O)O)C(=O)O)C(=O)NCC(=O)NCC(=O)N[C@@H](CO)C(=O)N[C@@H](CCCCNc1c(NCCCCCN(O)C(=O)CCC(=O)NCCCCCN(O)C(=O)CCC(=O)NCCCCCN(O)C(C)=O)c(=O)c1=O)C(=O)O)C(C)C [zirconium-89 labelled] gave a tissue uptake of 0.05 %ID/g (gamma counting; rat, stomach-duodenum content; intravenous, 3 nmol/kg, 72 h).
For C[C@@H](O)[C@@H](CO)NC(=O)[C@@H](CCCNC(=N)N)NC(=O)[C@@H]1CCCN1C(=O)[C@@H]1CSSC[C@H](NC(=O)[C@H](Cc2ccccc2)NC(=O)CN2CCN(CC(=O)O)CCN(CC(=O)O)CCN(CC(=O)O)CC2)C(=O)N[C@@H](Cc2ccc(O)cc2)C(=O)N[C@@H](Cc2ccccc2)C(=O)N[C@@H](CCC(N)=O)C(=O)N[C@@H](CC(N)=O)C(=O)N1 [gallium-68 labelled], the tissue uptake was 0.25 %ID/g (healthy Wistar rat, stomach; intravenous, 8 MBq, 60 min, individual animals).
For CC[C@H](C)[C@H](NC(=O)[C@H](Cc1ccccc1)NC(=O)[C@H](CCC(=O)O)NC(=O)[C@H](CCCNC(=N)N)NC(=O)[C@H](C)NC(=O)[C@H](C)NC(=O)[C@H](CCC(N)=O)NC(=O)[C@H](CCC(=O)O)NC(=O)[C@H](CCC(=O)O)NC(=O)[C@H](CC(C)C)NC(=O)[C@H](Cc1ccc(O)cc1)NC(=O)[C@H](CO)NC(=O)[C@H](CO)NC(=O)[C@@H](NC(=O)[C@H](CC(=O)O)NC(=O)[C@H](CO)NC(=O)[C@@H](NC(=O)[C@H](Cc1ccccc1)NC(=O)[C@@H](NC(=O)CNC(=O)[C@H](CCC(=O)O)NC(=O)[C@H](C)NC(=O)CCc1cnc[nH]1)[C@@H](C)O)[C@@H](C)O)C(C)C)C(=O)N[C@@H](C)C(=O)N[C@@H](Cc1c[nH]c2ccccc12)C(=O)N[C@@H](CC(C)C)C(=O)N[C@H](C(=O)N[C@@H](CCCNC(=N)N)C(=O)NCC(=O)N[C@@H](CCCNC(=N)N)C(=O)N[C@@H](CCCCNC(=O)COCCOCCNC(=O)COCCOCCNC(=O)CC[C@H](NC(=O)CCCCCCCCCCCCCCCCC(=O)O)C(=O)O)C(=O)NCC(=O)NCC(=O)N[C@@H](CO)C(=O)N[C@@H](CCCCNC(=O)[C@H](CCCCNc1c(NCCCCCN(O)C(=O)CCC(=O)NCCCCCN(O)C(=O)CCC(=O)NCCCCCN(O)C(C)=O)c(=O)c1=O)Nc1c(NCCCCCN(O)C(=O)CCC(=O)NCCCCCN(O)C(=O)CCC(=O)NCCCCCN(O)C(C)=O)c(=O)c1=O)C(=O)O)C(C)C, the EC50 was 0.0029 nM (GLP1R; cAMP reporter gene, agonist, CRE luciferase; BHK; with Zr, 0% HSA).
The inhibition of COc1ccc(N2C(=O)N(c3c(C)cccc3Cl)Cc3cnc(Nc4ccc(C5CCN(C)CC5)cc4OC)nc32)nc1 is reported as 5% (Macrophage-stimulating protein receptor (MST1R, Homo sapiens, UniProt Q04912); kinase activity, inhibitor; 0.5 µM, kinase RON).
For CC[C@H](C)[C@H](NC(=O)[C@H](Cc1ccccc1)NC(=O)[C@H](CCC(=O)O)NC(=O)[C@H](CCCNC(=N)N)NC(=O)[C@H](C)NC(=O)[C@H](C)NC(=O)[C@H](CCC(N)=O)NC(=O)[C@H](CCC(=O)O)NC(=O)[C@H](CCC(=O)O)NC(=O)[C@H](CC(C)C)NC(=O)[C@H](Cc1ccc(O)cc1)NC(=O)[C@H](CO)NC(=O)[C@H](CO)NC(=O)[C@@H](NC(=O)[C@H](CC(=O)O)NC(=O)[C@H](CO)NC(=O)[C@@H](NC(=O)[C@H](Cc1ccccc1)NC(=O)[C@@H](NC(=O)CNC(=O)[C@H](CCC(=O)O)NC(=O)[C@H](C)NC(=O)CCc1cnc[nH]1)[C@@H](C)O)[C@@H](C)O)C(C)C)C(=O)N[C@@H](C)C(=O)N[C@@H](Cc1c[nH]c2ccccc12)C(=O)N[C@@H](CC(C)C)C(=O)N[C@H](C(=O)N[C@@H](CCCCNc1c(NCCCCCN(O)C(=O)CCC(=O)NCCCCCN(O)C(=O)CCC(=O)NCCCCCN(O)C(C)=O)c(=O)c1=O)C(=O)NCC(=O)N[C@@H](CCCNC(=N)N)C(=O)N[C@@H](CCCCNC(=O)COCCOCCNC(=O)COCCOCCNC(=O)CC[C@H](NC(=O)CCCCCCCCCCCCCCCCC(=O)O)C(=O)O)C(=O)NCC(=O)NCC(=O)N[C@@H](CO)C(=O)N[C@@H](CCCCNc1c(NCCCCCN(O)C(=O)CCC(=O)NCCCCCN(O)C(=O)CCC(=O)NCCCCCN(O)C(C)=O)c(=O)c1=O)C(=O)O)C(C)C, the EC50 was 0.0079 nM (GLP1R; cAMP reporter gene, agonist, CRE luciferase; BHK; with Zr, 0% HSA).
For CC[C@H](C)[C@@H]1NC(=O)[C@@H]2CCCN2C(=O)[C@H](CC(C)C)NC(=O)[C@H](CC(C)C)NC(=O)CNC(=O)[C@@H](NC(=O)[C@@H](NC(=O)[C@H](CC(=O)O)NC(=O)CNC(=O)[C@@H](NC(=O)[C@H](C)NC(=O)CNC(=O)[C@H](CCCCN)NC(=O)[C@H](CC(C)C)NC(=O)[C@H](CC(C)C)NC(=O)[C@H](CCCCN)NC(=O)CNC(=O)[C@@H](NC(=O)[C@@H](N)CC(C)C)C(C)C)C(C)C)C(C)C)CSSC[C@@H](C(=O)O)NC1=O, “log2 fold change” read -2.03 (RNA-seq, measured: Lcp1; mouse, traumatic brain injury model, frontal cortex and hippocampus; dose not given; baseline: TBI alone).
C[C@H]1CN(c2n[nH]c3nc(N[C@H]4CC[C@H](NS(=O)(=O)CCC(F)(F)F)CC4)ncc23)CCO1 has an IC50 of at least 20000 nM (Paxillin (PXN, Homo sapiens, UniProt P49023); biochemical).
COCCn1c2nc(=O)n(-c3ccccc3)c(=O)c-2nc2ccccc21 has a Kd of 3200 nM (Genome polyprotein, NS5 methyltransferase domain (pol, Dengue virus type 3, UniProt Q6YMS4)).
With CC[C@H](C)[C@H](NC(=O)[C@H](Cc1ccccc1)NC(=O)[C@H](CCC(=O)O)NC(=O)[C@H](CCCNC(=N)N)NC(=O)[C@H](C)NC(=O)[C@H](C)NC(=O)[C@H](CCC(N)=O)NC(=O)[C@H](CCC(=O)O)NC(=O)[C@H](CCC(=O)O)NC(=O)[C@H](CC(C)C)NC(=O)[C@H](Cc1ccc(O)cc1)NC(=O)[C@H](CO)NC(=O)[C@H](CO)NC(=O)[C@@H](NC(=O)[C@H](CC(=O)O)NC(=O)[C@H](CO)NC(=O)[C@@H](NC(=O)[C@H](Cc1ccccc1)NC(=O)[C@@H](NC(=O)CNC(=O)[C@H](CCC(=O)O)NC(=O)[C@H](C)NC(=O)CCc1cnc[nH]1)[C@@H](C)O)[C@@H](C)O)C(C)C)C(=O)N[C@@H](C)C(=O)N[C@@H](Cc1c[nH]c2ccccc12)C(=O)N[C@@H](CC(C)C)C(=O)N[C@H](C(=O)N[C@@H](CCCCNc1c(NCCCCCN(O)C(=O)CCC(=O)NCCCCCN(O)C(=O)CCC(=O)NCCCCCN(O)C(C)=O)c(=O)c1=O)C(=O)NCC(=O)N[C@@H](CCCNC(=N)N)C(=O)N[C@@H](CCCCNc1c(NCCCCCN(O)C(=O)CCC(=O)NCCCCCN(O)C(=O)CCC(=O)NCCCCCN(O)C(C)=O)c(=O)c1=O)C(=O)NCC(=O)NCC(=O)N[C@@H](CO)C(=O)N[C@@H](CCCCNC(=O)COCCOCCNC(=O)COCCOCCNC(=O)CC[C@H](NC(=O)CCCCCCCCCCCCCCCCC(=O)O)C(=O)O)C(=O)O)C(C)C the EC50 was 0.17 nM (GLP1R; cAMP reporter gene, agonist, CRE luciferase; BHK; with Zr, 1% HSA).
The Kd of Nc1nc2c(ncn2[C@@H]2O[C@@H]3COP(=O)(O)O[C@H]4[C@@H](O)[C@H](n5cnc6c(=O)[nH]c(N)nc65)O[C@@H]4COP(=O)(O)O[C@H]3[C@H]2O)c(=O)[nH]1 is reported as 34000 nM (Cell cycle histidine kinase CckA, DHp-CA domains (Caulobacter vibrioides, UniProt Q9X688); isothermal titration calorimetry; Caulobacter crescentus; 12 °C, with: ADP 5 mM).

Excerpt of the above:
COc1ccc(N=Nc2ccc3[nH]cc(CCN(C)C)c3c2)cc1 gave a Ki of 24.8 nM (5-hydroxytryptamine receptor 1A (HTR1A, Homo sapiens, UniProt P08908); binding, radioligand binding; ambient light).
Cc1csc([C@H]2c3c(C)nn(-c4ccccc4)c3NC(=O)[C@H]2NC(=O)c2cccc(C(F)(F)F)c2)c1 gave an IC50 of over 15000 nM (DCN1-like protein 1).
